# Results gathered from unrelated publications.
# Each line is one published result; not all experiments were run side by side.
Compound,test,test system,conditions,endpoint,value
C[C@@H]1OC(=O)NN=C1c1ccc(-c2ccc(F)cc2)c(C(F)(F)F)c1,,"patients, phase I trial","oral, 5 mg once daily, worst grade 1",patients with muscle spasms,0%
CCN(CCO)CCCC(C)Nc1ccnc2cc(Cl)ccc12 (centres unmarked),refers to: Pruritus grade 1,newly diagnosed glioblastoma patients,"oral, 200 mg/dose, with radiotherapy and temozolomide",patients with adverse event,33%
Nc1nc2cc(-c3ccc4ncc(C(=O)N5CCOCC5)n4c3)ccc2o1,refers to: Diarrhea,advanced solid tumour patients,dose not given,patients with adverse event,3%
N[C@@H]1c2ccccc2OC12CCN(c1cnc3c(N4CCCc5ncccc54)n[nH]c3n1)CC2,,advanced solid tumour patients,"oral, 100 mg once daily",patients with fatal TEAE,14.3%
O=C1Nc2cc3[nH]nc(-c4ccncc4)c3cc2CN1Cc1ccccc1,CTCAE v4.03,advanced solid tumour patients,"intravenous, 0.9 mg/kg, schedules 1/2",patients with ≥1 TEAE,100%
CC(=O)c1c(C)c2cnc(Nc3ccc(C4CCN(CCS(C)(=O)=O)CC4)cn3)nc2n(C2CCCC2)c1=O,,HR+/HER2- advanced breast cancer patients,"oral, 200 mg",patients with any TEAE,100%
CN1CC[C@@H](c2c(O)cc(O)c3c(=O)cc(-c4ccc(C(F)(F)F)cc4Cl)oc23)[C@@H]1CO,refers to: Hypotension,B-cell malignancies,"oral, 150 mg, intermittent dosing",patients with adverse event,0%
C=CCNc1c(O)cc2c(O)c1C[C@@H](C)C[C@H](OC)[C@H](O)[C@@H](C)/C=C(\C)[C@H](OC(N)=O)[C@@H](OC)/C=C\C=C(/C)C(=O)N2,refers to: fatigue,unresectable or metastatic GIST/STS,"intravenous, dose not given, all patients",patients with related AEs,59%
COc1c(OCCCN2CCOCC2)ccc2c1N=C(NC(=O)c1cnc(N)nc1)N1CCN=C21,refers to: Fatigue,patients with advanced malignancies,"intravenous, dose not given, any grade, all cohorts, with: gemcitabine",patients with adverse event,76%
Cc1cc(OCCOCCC(F)(F)P(=O)(O)O)ccc1CCc1cnc2c(N)nc3cc(CCC(=O)O)ccc3c2c1,refers to: chills,adults with advanced solid tumours,"dose not given, all groups pooled, all grades",patients with non-serious AE,11.1%
CO[C@H]1C[C@@H]2CC[C@@H](C)[C@@](O)(O2)C(=O)C(=O)N2CCCC[C@H]2C(=O)O[C@H]([C@H](C)C[C@@H]2CC[C@@H](OC(=O)NCCOCCOCCOCCOCCOCCOCCOCCOCCC(=O)N3CCc4cc(Cn5nc(-c6ccc7oc(N)nc7c6)c6c(N)ncnc65)ccc4C3)[C@H](OC)C2)C[C@@H](O)[C@H](C)/C=C(\C)[C@@H](O)[C@@H](OC)C(=O)[C@H](C)C[C@H](C)/C=C/C=C/C=C/1C,refers to: treatment-related AEs,patients with advanced solid tumours,"intravenous, 1.6 mg/3 mg, grade ≥3, weekly",patients with AE,0%

# Some of these lines once more:
Compound,test,test system,conditions,endpoint,value
C[C@@H]1OC(=O)NN=C1c1ccc(-c2ccc(F)cc2)c(C(F)(F)F)c1,,"patients, phase I trial","oral, 5 mg once daily, worst grade 1",patients with muscle spasms,0%
